Measurements pooled from the literature.
Compare with care: the assays were run in different laboratories. Several values in a cell are separate wells, animals, samples, runs or records. pEC50, pIC50: −log10 of the molar value. Converted amounts (≈) assume the structure as drawn.

Compound	organism	assay	test system	setting	scale	endpoint	result
CCc1nc2ccc(Br)cn2c1C(=O)NCc1ccc2oc(-c3ccc(Cl)cc3)nc2c1	Mycobacteroides abscessus	RFP fluorescence	ATCC 19977, RFP reporter			MIC90	> 50 µM
COc1cc(Nc2n[nH]c3nc(-c4ccccc4)nc(N)c23)cc(OC)c1OC	Human rhinovirus 8	cytopathic effect, inhibitor	HeLa			pIC50	5.12
Cc1ccc(C(=O)c2sc(S)c(-c3nc4ccccc4s3)c2N)cc1	human alphaherpesvirus 1	plaque reduction		non-toxic concentration		viral titre reduction	10%
CC1(C)C(NC(=O)C(=NOC2(C(=O)O)CC2)c2csc(N)n2)C(=O)N1OS(=O)(=O)O (stereo not drawn)	Enterobacter cloacae	agar dilution	ATCC 43560, susceptible			MIC	0.06 µg/mL (≈ 0.129 µM)
N#Cc1ccc(Nc2n[nH]c3nc(-c4ccccc4)nc(N)c23)cc1	Human rhinovirus 8	cytopathic effect, inhibitor	HeLa			pIC50	4.12
C=CCO/N=C(\C(=O)N[C@@H]1C(=O)N(OS(=O)(=O)O)C1(C)C)c1nsc(N)n1	Enterobacter cloacae	agar dilution	CDC 1000654			MIC	1 µg/mL (≈ 2.38 µM)
Cc1c(CN(C)C(=O)/C=C/c2cnc3c(c2)CC(N)C(=O)N3)oc2ccccc12 (stereo not drawn)	Klebsiella pneumoniae	broth microdilution	AR-0113			MIC	32 µg/mL (≈ 82 µM)
C[C@@H]1C(=O)O[C@@H](C)/C=C/C=C\[C@@H](C)[C@@H]2C=C[C@@H]3C[C@@]4(C)O[C@H]4[C@@H](C)[C@H]3[C@@H]2C(=O)C(Cl)(Cl)C1=O	Staphylococcus aureus		MSSA and MRSA clinical isolates	180 isolates		MIC50	0.05 µg/mL (≈ 0.101 µM)
O=[N+]([O-])c1cc(Br)cc([N+](=O)[O-])c1NS(=O)(=O)c1ccc(Br)cc1	Arabidopsis thaliana wild type			10 µM		germination rate	> 90%
C=C(NC(=O)c1csc(-c2nc3c(cc2O)-c2nc(cs2)C(=O)NC(C(C)O)C(=O)NC(=C(C)OC)c2nc(cs2)C(=O)NC2c4nc(cs4)C(=O)NC(COC(=O)c4c5c6c(cccc6n4O)COC(=O)C(OC4CC(C)(O)C(N(C)C)C(C)O4)C2OC5)c2nc-3cs2)n1)C(N)=O (stereo not drawn)	Enterococcus faecium	agar dilution	vancomycin-intermediate	25 isolates		MIC90	0.0312 µg/mL
OC(Cn1cncn1)(Cn1cc(-[c-]2cccc2)nn1)c1ccc(F)cc1F.[Cl-].[Co+3].c1cc[cH-]c1 (racemic)	Trichuris muris	Worminator	adult males and females	100 µM, day 2		motility inhibition	29%
CC1(C)[C@H](NC(=O)/C(=N\OCCN)c2nsc(N)n2)C(=O)N1OS(=O)(=O)O	Enterobacter cloacae	agar dilution	ATCC 43560, susceptible			MIC	8 µg/mL (≈ 18.9 µM)
CCc1nc2ccc(C(F)(F)F)cn2c1C(=O)NCc1ccc2oc(-c3ccc(Cl)cc3)nc2c1	Mycobacteroides abscessus	RFP fluorescence	ATCC 19977, RFP reporter			MIC90	> 100 µM
Nc1nc(-c2ccc(OC(F)(F)F)cc2)nc2[nH]nc(Nc3ccccc3)c12	Human rhinovirus 8	cytopathic effect, inhibitor	HeLa			pIC50	5.74
Cc1cc(C(=O)Nc2nc3cccc(C)c3n2[C@H]2CCCCN(C(=O)/C=C/CN(C)C)C2)ccn1	Trypanosoma brucei brucei		Lister 427	16.67 µM, 0 h, kill kinetics		proliferation	100%
FC(F)(F)c1cccc(CNc2nc(NC3CCN(Cc4ccccc4)CC3)c3nc[nH]c3n2)c1	Cryptococcus neoformans	RNA-seq		48 µg/mL, 3 h, log2 fold change below -1		downregulated genes	506 genes
Cc1cccc(Nc2n[nH]c3nc(-c4ccccc4)nc(N)c23)c1	Human rhinovirus 8	cytopathic effect, inhibitor	HeLa			pIC50	5.66
CCc1nc2ccc(OC(F)(F)F)cn2c1C(=O)NCc1ccc2oc(-c3ccc(Cl)cc3)nc2c1	Mycobacteroides abscessus	RFP fluorescence	ATCC 19977, RFP reporter			MIC90	> 25 µM

Compound	organism	assay	test system	setting	scale	endpoint	result
CCCOC(=O)N1c2cc(CNC)ccc2[C@H](NC(=O)C(=O)Nc2ccc(Cl)c(F)c2)[C@H]1CNC(=N)N	HIV-1	pseudovirus infection, Env pseudovirus neutralisation	TZM-bl, clade B transmitted/founder			IC80	207 nM
Cc1nc2cc(OC(F)(F)F)ccn2c1C(=O)NCc1ccc2oc(-c3ccc(OC(F)(F)F)cc3)nc2c1	Mycobacteroides abscessus	RFP fluorescence	ATCC 19977, RFP reporter			MIC90	> 100 µM
Nc1nc(-c2ccccc2)nc2[nH]nc(Nc3cccc(C(F)(F)F)c3)c12	Human rhinovirus 8	cytopathic effect, inhibitor	HeLa			pIC50	4.79
COC1C=COC2(C)Oc3c(C)c(O)c4c(c3C2=O)C2=NC3(CCN(CC(C)C)CC3)NC2=C(NC(=O)C(C)=CC=CC(C)C(O)C(C)C(O)C(C)C(OC(=O)c2cncnc2)C1C)C4=O (stereo not drawn)	Mycobacteroides abscessus		ATCC 19977, caseum surrogate	5 d, non-replicating		MBC	0.7 µM (≈ 0.638 µg/mL)
CC(=O)O[C@@H]1[C@@H](OC(C)=O)[C@H](Sc2sc(C(=O)c3ccc(Cl)cc3)c(N)c2-c2nc3ccccc3s2)OC[C@H]1OC(C)=O	human alphaherpesvirus 1	plaque reduction		non-toxic concentration		viral titre reduction	10%
CC(C)[C@H]1NC(=O)[C@H](Cc2ccccc2)NC(=O)[C@@H](C(C)C)NC(=O)[C@@H](C)NC(=O)[C@H](CO)NC(=O)[C@@H](Cc2c[nH]c3ccccc23)NC(=O)[C@@H](CO)NC1=O	Vibrio vulnificus	broth dilution				MIC90	> 50 µM
Nc1nc(-c2ccccc2)nc2[nH]nc(Nc3ccc([N+](=O)[O-])cc3)c12	Human rhinovirus 8	cytopathic effect, inhibitor	HeLa			pIC50	5.26
Nc1c(C(=O)c2ccc(Cl)cc2)sc(S)c1-c1nc2ccccc2s1	human alphaherpesvirus 1	plaque reduction		non-toxic concentration		viral titre reduction	20%
Cc1nc2ccc(Br)cn2c1C(=O)NCc1ccc2oc(-c3ccc(Cl)cc3)nc2c1	Mycobacteroides abscessus	RFP fluorescence	ATCC 19977, RFP reporter			MIC90	> 50 µM
Cc1cccc2c1N(C(=O)n1ccnn1)CC2	Arabidopsis thaliana		kai2 mutant, seeds	1 µM		germination rate	21.7% and 30% and 34.8% and 25.8% and 16.3% and 16%
Nc1nc(-c2ccc(OC(F)(F)F)cc2)nc2[nH]nc(Nc3ccc(Cl)cc3)c12	Human rhinovirus 8	cytopathic effect, inhibitor	HeLa			pIC50	5.72
CC1CC2(N=CCS2)C2(O)OC3CC4(C)C(CC3OC2O1)CC1OC12C4C(O)C(=O)C1(C)C(C3=CC(=O)OC3)CCC12O (stereo not drawn)	Oncopeltus fasciatus			diet, concentration not given		eggs per female	294
Cc1nc2cc(C(F)(F)F)ccn2c1C(=O)NCc1ccc2oc(-c3ccc(OC(F)(F)F)cc3)nc2c1	Mycobacteroides abscessus	RFP fluorescence	ATCC 19977, RFP reporter			MIC90	> 50 µM
CC(C)(C)NCC(SS(=O)(=O)O)c1ccccc1 (stereo not drawn)	Schistosoma mansoni	perfusion day 44	infected Swiss Webster mice	600 mg/kg single dose, 1056 h, dosed day 7 post-infection	baseline: vehicle control	spleen weight decrease	40%
Nc1ncnc2c1ncn2[C@@H]1O[C@H](CSCc2cccc(C(=O)O)c2)[C@@H](O)[C@H]1O	murine hepatitis virus	viral replication	A59	16 h		pEC50	< 3.70
CC(=O)OC[C@H]1O[C@@H](Sc2sc(C(=O)c3ccc(C)cc3)c(N)c2-c2nc3ccccc3s2)[C@H](OC(C)=O)[C@@H](OC(C)=O)[C@@H]1OC(C)=O	human alphaherpesvirus 1	plaque reduction		non-toxic concentration		viral titre reduction	0%
Nc1nc(-c2ccc(C(F)(F)F)cc2)nc2[nH]nc(Nc3ccc(F)cc3)c12	Human rhinovirus 8	cytopathic effect, inhibitor	HeLa			pIC50	6.11
COc1c(NC(=O)c2ccc(NC(=O)c3ccc(NC(=O)[C@H](Cc4c[nH]nn4)NC(=O)c4ccc(NC(=O)/C(C)=C/c5ccc(O)cc5)cc4)cc3)cc2O)ccc(C(=O)O)c1O	Enterococcus faecium	broth microdilution	ciprofloxacin-sensitive			MIC	8 µg/mL (≈ 9.36 µM)

Excerpt of the above:
Compound	organism	assay	test system	setting	scale	endpoint	result
Cc1nc2ccc(Br)cn2c1C(=O)NCc1ccc2oc(-c3ccc(Cl)cc3)nc2c1	Mycobacteroides abscessus	RFP fluorescence	ATCC 19977, RFP reporter			MIC90	> 50 µM
Cc1cccc2c1N(C(=O)n1ccnn1)CC2	Arabidopsis thaliana		kai2 mutant, seeds	1 µM		germination rate	21.7% and 30% and 34.8% and 25.8% and 16.3% and 16%
Nc1nc(-c2ccc(OC(F)(F)F)cc2)nc2[nH]nc(Nc3ccc(Cl)cc3)c12	Human rhinovirus 8	cytopathic effect, inhibitor	HeLa			pIC50	5.72
